Results gathered from unrelated publications.
A part holds a random share of what one study measured.

Set 1
Target: Histone acetyltransferase KAT6A, winged helix 1, GST fusion (KAT6A, Homo sapiens, UniProt Q92794, residues 1-85)
Method: protein binding microarray
Molecule type: double-stranded DNA, one strand shown
Sample: in vitro
Concentration: not given
Setting: 8-mer, flanks averaged, mean of 2 arrays, mostly near background
Reference: not given
Direction: higher = stronger binding
Construct (chain): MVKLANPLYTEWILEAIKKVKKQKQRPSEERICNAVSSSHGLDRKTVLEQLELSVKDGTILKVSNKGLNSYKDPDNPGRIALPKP
Strand | E-score
CCACTCGC | 0.161
AAATGATT | -0.192
ATTCCACG | 0.0658
GCTCCCAA | -0.233
CAGCATCC | -0.0658

Set 2
Target: Prothrombin, mature alpha-thrombin (F2, Homo sapiens, UniProt P00734)
Method: aptamer microarray, sandwich
Molecule type: DNA with 2'F-ANA
Sample: in vitro
Concentration: 200 nM
Setting: whole 15-mer aptamer, many near background
Added: Cy3 exosite-II aptamer, 400 nM
Direction: higher = stronger binding
Strand: GGTTGGTGTGGTTGG
Modification | mean fluorescence intensity [a.u.]
2'F-ANA at 1 4 6 10 12 13 14 | 47
2'F-ANA at 1 2 5 7 11 15 | 54
2'F-ANA at 1 2 4 6 9 12 14 | 51.7
2'F-ANA at 6 8 9 11 14 | 187
2'F-ANA at 3 9 10 12 13 15 | 561
2'F-ANA at 1 4 5 6 8 11 12 14 15 | 46.5

Set 3
Target: Sal-like protein 4, full length isoform A (SALL4, Homo sapiens, UniProt Q9UJQ4, residues 1-1053)
Chain of UniProt Q9UJQ4 (whole entry, looked up): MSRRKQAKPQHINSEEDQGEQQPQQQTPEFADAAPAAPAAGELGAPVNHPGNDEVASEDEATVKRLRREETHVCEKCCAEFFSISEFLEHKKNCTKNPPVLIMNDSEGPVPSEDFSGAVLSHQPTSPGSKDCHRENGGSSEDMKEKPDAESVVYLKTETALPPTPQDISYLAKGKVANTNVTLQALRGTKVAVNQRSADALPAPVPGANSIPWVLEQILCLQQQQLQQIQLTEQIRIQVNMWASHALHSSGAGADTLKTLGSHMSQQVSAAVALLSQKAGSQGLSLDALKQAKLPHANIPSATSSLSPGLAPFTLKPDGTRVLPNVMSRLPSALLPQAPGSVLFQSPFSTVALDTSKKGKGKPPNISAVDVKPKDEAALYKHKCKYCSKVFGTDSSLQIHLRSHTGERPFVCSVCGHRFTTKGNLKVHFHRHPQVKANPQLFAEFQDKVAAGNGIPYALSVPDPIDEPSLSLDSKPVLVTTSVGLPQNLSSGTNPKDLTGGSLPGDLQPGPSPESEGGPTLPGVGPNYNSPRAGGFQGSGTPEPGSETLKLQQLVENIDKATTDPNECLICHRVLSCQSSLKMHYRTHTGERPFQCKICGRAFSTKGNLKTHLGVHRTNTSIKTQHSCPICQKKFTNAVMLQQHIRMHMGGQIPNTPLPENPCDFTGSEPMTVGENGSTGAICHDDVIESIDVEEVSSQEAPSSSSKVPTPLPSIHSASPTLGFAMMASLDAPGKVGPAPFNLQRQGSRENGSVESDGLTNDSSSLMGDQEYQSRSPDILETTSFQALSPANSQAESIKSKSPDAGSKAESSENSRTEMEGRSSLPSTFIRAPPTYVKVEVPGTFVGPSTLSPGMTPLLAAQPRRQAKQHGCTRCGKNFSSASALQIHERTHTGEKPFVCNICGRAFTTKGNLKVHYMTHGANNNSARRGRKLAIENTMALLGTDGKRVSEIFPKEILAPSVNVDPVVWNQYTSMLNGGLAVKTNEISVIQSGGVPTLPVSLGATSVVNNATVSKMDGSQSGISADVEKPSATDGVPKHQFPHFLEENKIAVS
Method: universal PBM
Molecule type: double-stranded DNA, one strand shown
Sample: in vitro
Concentration: 600 nM
Setting: 8-mer, flanks averaged, mean of replicates
Direction: higher = stronger binding
Strand | E-score
CGTGGAAG | -0.113
CTAGACAC | 0.00115
AATAAACA | 0.376
CGCGATAG | -0.105

Other studies, line by line
Substance | target | test | test system | conditions | how to read | measurement | result
PhoQ, residues 284 288 289 292 302 303 SIHLQL | PhoP, residues 12 14 15 18 19 LHSVW (Escherichia coli, UniProt P23836) | Sort-seq, measured: YFP reporter | E. coli | PhoQ-PhoP variant library, added: 10 µM Mg2+ | reference: high Mg2+ state, higher = stronger signaling | fold induction | 1.19

A few entries again (other studies, line by line):
Substance | target | test | test system | conditions | how to read | measurement | result
PhoQ, residues 284 288 289 292 302 303 SIHLQL | PhoP, residues 12 14 15 18 19 LHSVW (Escherichia coli, UniProt P23836) | Sort-seq, measured: YFP reporter | E. coli | PhoQ-PhoP variant library, added: 10 µM Mg2+ | reference: high Mg2+ state, higher = stronger signaling | fold induction | 1.19
